Results from different studies.
Each line is one published result; not all experiments were run side by side. ± marks the error that the study gave.

`CCCC[C@H](OC(C)=O)c1ccccc1C(=O)O` has a Cmax of 49300 ± 4000 ng/mL (Sprague-Dawley rat, both sexes, whole blood; intravenous, 20 mg/kg, single dose).
`Cc1c(-c2ccc(N3CCc4cccc(C(=O)Nc5nc6ccccc6s5)c4C3)nc2C(=O)O)cnn1CC12CC3CC(CC(C3)C1)C2` has a Cmax of 194000 ng/mL (anesthetized male Sprague-Dawley rats, plasma; intravenous infusion, 30 mg/kg, 30 min infusion).
For `C=CC[C@@H]1/C=C(\C)C[C@H](C)C[C@H](OC)[C@H]2O[C@@](O)(C(=O)C(=O)N3CCCC[C@H]3C(=O)O[C@H](/C(C)=C/[C@@H]3CC[C@@H](O)[C@H](OC)C3)[C@H](C)[C@@H](O)CC1=O)[C@H](C)C[C@@H]2OC`, the Cmax was 136 ng/mL (LC-MS/MS; rat, whole blood; intraperitoneal, 0.5 mg/kg single dose).
The Cmax of `COc1ccc([C@@H]2CC(=O)c3c(O)cc(O[C@@H]4O[C@H](CO)[C@@H](O)[C@H](O)[C@H]4O[C@@H]4O[C@@H](C)[C@H](O)[C@@H](O)[C@H]4O)cc3O2)cc1O` is reported as 4.16 ± 3.68 ng/mL (Sprague-Dawley rat, male, lean, plasma; intravenous, 4 mg/kg).
`CC1(C)C(NC(=O)C(=NOC2(C(=O)O)CC2)c2csc(N)n2)C(=O)N1OS(=O)(=O)O` (stereo not shown) gave a Cmax of 51500 ± 19700 ng/mL (Sprague-Dawley rat, plasma; intravenous, 10 mg/kg).
With `O=C(Nc1ccc(OC(F)(F)F)cc1)NC1CCN(C(=O)C2CC2)CC1` the Cmax was 326 nM (Sprague-Dawley rat, male, whole blood; oral, 0.1 mg/kg).
`CC[C@H](C)[C@H](NC(=O)[C@H](Cc1ccc(O)cc1)NC(=O)[C@@H](NC(=O)[C@H](CCCNC(=N)N)NC(=O)[C@@H](N)CC(=O)O)C(C)C)C(=O)N[C@@H](Cc1c[nH]cn1)C(=O)N1CCC[C@H]1C(=O)O` gave a Cmax of 26 ng/mL (LC-MS/MS; Sprague-Dawley rats, plasma; subcutaneous, 10 mg/kg/day, day 0).
`O=C(Nc1cc(-c2ccnc3[nH]ccc23)c(Cl)cn1)[C@H]1CCC[C@@H](NC(=O)C(F)(F)F)C1` has a Cmax of 2610 nM (rat, plasma; oral, dose not given).
With `C=C(NC(=O)c1csc(-c2nc3c(cc2O)-c2nc(cs2)C(=O)NC(C(C)O)C(=O)NC(=C(C)OC)c2nc(cs2)C(=O)NC2c4nc(cs4)C(=O)NC(COC(=O)c4c5c6c(cccc6n4O)COC(=O)C(OC4CC(C)(O)C(N(C)C)C(C)O4)C2OC5)c2nc-3cs2)n1)C(N)=O` (stereo not shown) the Cmax was 3160 ng/mL (Sprague-Dawley rat, male, plasma; intravenous infusion, 6 mg/kg, multiple doses, day 7).
For `OC1(C(F)(F)F)CCN(c2nc(Nc3ccnc(C(F)(F)F)c3)nc(-c3cccc(C(F)(F)F)n3)n2)C1` (stereo not shown), the Cmax was 217 ± 34.5 ng/mL (Sprague-Dawley rat, both sexes, plasma; oral gavage, 5 mg/kg).

A few entries again:
With `O=C(Nc1ccc(OC(F)(F)F)cc1)NC1CCN(C(=O)C2CC2)CC1` the Cmax was 326 nM (Sprague-Dawley rat, male, whole blood; oral, 0.1 mg/kg).
